{"data": "Published values from different studies", "note": "± gives the spread as reported.", "chain of UniProt P61073 (whole entry, looked up)": "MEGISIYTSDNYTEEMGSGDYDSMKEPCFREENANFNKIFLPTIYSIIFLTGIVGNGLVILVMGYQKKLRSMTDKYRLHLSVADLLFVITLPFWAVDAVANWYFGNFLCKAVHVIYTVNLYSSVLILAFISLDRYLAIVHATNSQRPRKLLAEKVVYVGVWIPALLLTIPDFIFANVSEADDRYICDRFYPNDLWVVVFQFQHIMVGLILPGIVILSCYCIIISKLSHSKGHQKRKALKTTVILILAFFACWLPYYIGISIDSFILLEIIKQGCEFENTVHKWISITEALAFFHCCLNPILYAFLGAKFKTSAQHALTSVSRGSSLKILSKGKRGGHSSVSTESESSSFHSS"}
{"SMILES": "O=C(O)CCC(NP(=O)(O)OCCC[C@@H](NC(=O)CCC(NC(=O)c1ccc([18F])cc1)C(=O)O)C(=O)O)C(=O)O (stereo partly drawn)", "target or system": "CWR22Rv1 tumour model", "test system": "host not given, bone", "setting": "intravenous, 2 h, tumour-bearing", "endpoint": "tracer uptake", "value": "0.5 %ID/g"}
{"SMILES": "CCC(=O)N(C)c1ccc(Cl)c(Cl)c1", "target or system": "Escherichia coli", "test": "Ames test", "test system": "WP2 uvrA", "setting": "0.05 mg/plate, without S9", "endpoint": "revertants", "value": "36 ± 7.5 revertants/plate"}
{"SMILES": "Nc1nc2c([C@@H]3O[C@@H]4COP(=O)(O)O[C@H]5[C@@H](O)[C@H](c6snc7c(=O)[nH]c(N)nc67)O[C@@H]5COP(=O)(O)O[C@H]4[C@H]3O)snc2c(=O)[nH]1", "test system": "water", "endpoint": "emission quantum yield", "value": 0.039}
{"SMILES": "O=C(O)CCC(NP(=O)(O)OCCC[C@@H](NC(=O)CCC(NC(=O)CCCCCNC(=O)CCCCCNC(=O)c1ccc([18F])cc1)C(=O)O)C(=O)O)C(=O)O (stereo partly drawn)", "target or system": "CWR22Rv1 tumour model", "test system": "host not given, muscle", "setting": "intravenous, 2 h, tumour-bearing", "endpoint": "tracer uptake", "value": "0.08 %ID/g"}
{"SMILES": "CN1C(=O)[C@@H](Cc2ccc(O)cc2)NC(=O)CNC(=O)[C@H](Cc2ccc3ccccc3c2)NC(=O)[C@H](CCCNC(=N)N)NC(=O)[C@H]1CCCNC(=O)c1ccc(CNC(=O)CN2CCN(CC(=O)O)CCN(CC(=O)O)CCN(CC(=O)O)CC2)cc1 [gallium-68 labelled]", "target or system": "CXCR4 (Homo sapiens, UniProt P61073)", "test": "PET", "test system": "human, nodal lesions", "endpoint": "SUVmax", "value": 6.64}
{"SMILES": "CCCCCc1cc(OC(=O)C(NC(=O)CCC(=O)O)C(C)C)c2c(c1)OC(C)(C)C1CCC(C)=CC21 (stereo not drawn)", "test system": "isolated rabbit cornea", "setting": "3 h, pH 7.4, 34 °C, donor Cremophor RH sample A 0.05%", "endpoint": "Papp", "value": "3.2 ± 0.21 ×10⁻⁶ cm/s"}
{"SMILES": "COc1ccc(CNc2nc(N3CCC[C@H]3CO)ncc2C(=O)NN)cc1Cl", "target or system": "Salmonella typhimurium", "test system": "TA1535", "setting": "250 µg/plate, 48 h, together with: rat liver S9", "endpoint": "revertant count", "value": "54 ± 2"}
{"SMILES": "CN(C)CC1CCCCC1(O)c1cccc(O)c1 (stereo not drawn)", "target or system": "P-glycoprotein", "test system": "Caco-2 TC7", "setting": "1 µM, 3 h, pH 7.4, together with: elacridar 4 µM", "endpoint": "Papp A to B", "value": "13.5 ± 1.3 ×10⁻⁶ cm/s"}
{"SMILES": "CN[C@](C)(C[18F])C(=O)O", "target or system": "MDA-MB-468 tumour model", "test system": "host not given, blood", "setting": "2 h, tumour-bearing", "endpoint": "tracer uptake", "value": "0.5 %ID/g"}
{"SMILES": "COc1cc(C(=O)NCCOCCOCCOCCNC(=O)c2ccc([18F])nc2)ccc1NC(=O)C1NC(CC(C)(C)C)C(C#N)(c2ccc(Cl)cc2F)C1c1cccc(Cl)c1F (stereo not drawn)", "target or system": "HepG2 tumour model", "test system": "host not given, lung", "setting": "2 h, tumour-bearing", "endpoint": "tracer uptake", "value": "0.81 %ID/g"}
{"SMILES": "COc1ccc(CNc2nc(N3CCC[C@H]3CO)ncc2C(=O)NNC(=O)c2cnc(N3CCC[C@H]3CO)nc2NCc2ccc(OC)c(Cl)c2)cc1Cl", "target or system": "Salmonella typhimurium", "test system": "TA1535", "setting": "500 µg/plate, 48 h", "endpoint": "revertant count", "value": "38 ± 4"}
{"SMILES": "O=C(O)CCC(NP(=O)(O)OCCC[C@@H](NC(=O)CCC(NC(=O)CCCCCNC(=O)c1ccc([18F])cc1)C(=O)O)C(=O)O)C(=O)O (stereo partly drawn)", "target or system": "CWR22Rv1 tumour model", "test system": "host not given, lung", "setting": "intravenous, 2 h, tumour-bearing", "endpoint": "tracer uptake", "value": "0.21 %ID/g"}
{"SMILES": "CCN(CC)Cc1cc(Nc2c(C3CCCC3)c(C)nc3cc(Cl)ccc23)ccc1O", "target or system": "Vero WNV replicon cells", "setting": "24 h", "endpoint": "CC50", "value": "14.6 ± 0.51 µM"}
{"SMILES": "C[C@@](O)(C(F)F)[C@H](NC(=O)c1ccc(C#CC#CC2CC2)cc1)C(=O)NO", "test system": "dog, plasma", "setting": "oral, 50 mg/kg", "endpoint": "half-life", "value": "1.8 h"}
{"SMILES": "O=C(N=P12CN3CN(CN(C3)C1)C2)c1ccccn1.[Cl][Pd][Cl]", "test": "NMR", "test system": "DMSO:water 50:50", "endpoint": "stability time", "value": "> 4 days"}
{"note": "Some of these lines once more:"}
{"SMILES": "CCN(CC)Cc1cc(Nc2c(C3CCCC3)c(C)nc3cc(Cl)ccc23)ccc1O", "target or system": "Vero WNV replicon cells", "setting": "24 h", "endpoint": "CC50", "value": "14.6 ± 0.51 µM"}
